Results gathered from unrelated publications.
Every numbered part comes from another study and shows a few of its results, in no order. Values joined by “and” are separate records of one study, mostly repeats; a detail may differ.
UniProt P53350, sequence (whole entry, looked up): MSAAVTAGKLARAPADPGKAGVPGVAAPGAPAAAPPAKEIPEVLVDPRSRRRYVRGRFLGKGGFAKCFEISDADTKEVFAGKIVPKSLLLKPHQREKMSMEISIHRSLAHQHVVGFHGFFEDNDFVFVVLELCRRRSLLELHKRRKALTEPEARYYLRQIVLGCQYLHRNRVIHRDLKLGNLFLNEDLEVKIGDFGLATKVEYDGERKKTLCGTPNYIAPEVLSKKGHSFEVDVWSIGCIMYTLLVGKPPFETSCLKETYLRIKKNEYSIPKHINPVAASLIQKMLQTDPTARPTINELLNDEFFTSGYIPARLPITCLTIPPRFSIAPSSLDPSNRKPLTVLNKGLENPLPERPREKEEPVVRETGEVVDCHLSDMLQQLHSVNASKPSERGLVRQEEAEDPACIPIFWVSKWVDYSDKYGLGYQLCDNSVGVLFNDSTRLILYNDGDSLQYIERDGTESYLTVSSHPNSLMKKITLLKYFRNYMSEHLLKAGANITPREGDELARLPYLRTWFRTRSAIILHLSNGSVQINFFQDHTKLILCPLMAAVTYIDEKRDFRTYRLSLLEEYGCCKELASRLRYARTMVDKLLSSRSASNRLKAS
UniProt Q9H2K8, sequence (whole entry, looked up): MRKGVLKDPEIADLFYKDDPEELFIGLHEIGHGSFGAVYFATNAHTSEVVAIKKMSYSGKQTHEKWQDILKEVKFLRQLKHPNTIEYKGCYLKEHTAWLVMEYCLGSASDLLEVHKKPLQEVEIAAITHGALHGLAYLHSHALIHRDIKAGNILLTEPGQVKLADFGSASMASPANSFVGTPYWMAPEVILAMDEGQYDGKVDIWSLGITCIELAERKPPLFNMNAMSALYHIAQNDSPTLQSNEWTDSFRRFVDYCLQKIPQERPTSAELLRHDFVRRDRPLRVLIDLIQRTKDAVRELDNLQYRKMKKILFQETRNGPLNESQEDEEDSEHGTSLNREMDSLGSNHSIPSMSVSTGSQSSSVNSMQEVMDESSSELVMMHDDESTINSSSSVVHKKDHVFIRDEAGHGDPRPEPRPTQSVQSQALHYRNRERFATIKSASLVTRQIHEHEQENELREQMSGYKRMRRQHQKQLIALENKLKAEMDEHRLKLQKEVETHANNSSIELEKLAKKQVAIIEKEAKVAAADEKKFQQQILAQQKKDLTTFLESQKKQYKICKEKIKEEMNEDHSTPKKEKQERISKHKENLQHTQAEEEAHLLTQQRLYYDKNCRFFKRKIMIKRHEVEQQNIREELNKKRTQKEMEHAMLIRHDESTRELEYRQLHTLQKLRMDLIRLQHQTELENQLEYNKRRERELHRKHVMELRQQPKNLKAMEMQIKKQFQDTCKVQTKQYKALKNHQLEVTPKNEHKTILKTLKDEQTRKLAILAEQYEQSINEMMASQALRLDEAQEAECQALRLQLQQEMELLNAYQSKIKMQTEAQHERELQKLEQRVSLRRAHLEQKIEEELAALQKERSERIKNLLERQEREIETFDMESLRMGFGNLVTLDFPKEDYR
UniProt Q9H1R3, sequence (whole entry, looked up): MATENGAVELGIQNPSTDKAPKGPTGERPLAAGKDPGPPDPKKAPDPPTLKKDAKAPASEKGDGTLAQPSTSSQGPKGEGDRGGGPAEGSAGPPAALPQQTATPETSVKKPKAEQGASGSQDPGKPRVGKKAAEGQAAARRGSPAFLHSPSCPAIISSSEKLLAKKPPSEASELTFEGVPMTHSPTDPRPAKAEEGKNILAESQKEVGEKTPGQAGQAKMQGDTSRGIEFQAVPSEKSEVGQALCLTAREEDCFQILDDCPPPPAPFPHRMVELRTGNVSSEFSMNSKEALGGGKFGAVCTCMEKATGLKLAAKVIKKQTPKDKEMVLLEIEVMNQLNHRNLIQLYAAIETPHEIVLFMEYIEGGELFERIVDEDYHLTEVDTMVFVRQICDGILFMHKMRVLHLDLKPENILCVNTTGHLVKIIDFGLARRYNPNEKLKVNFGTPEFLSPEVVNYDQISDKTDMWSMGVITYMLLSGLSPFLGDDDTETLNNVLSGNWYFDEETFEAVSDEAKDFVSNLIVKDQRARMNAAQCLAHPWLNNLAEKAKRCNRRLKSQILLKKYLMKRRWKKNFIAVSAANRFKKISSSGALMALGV
UniProt P29322, sequence (whole entry, looked up): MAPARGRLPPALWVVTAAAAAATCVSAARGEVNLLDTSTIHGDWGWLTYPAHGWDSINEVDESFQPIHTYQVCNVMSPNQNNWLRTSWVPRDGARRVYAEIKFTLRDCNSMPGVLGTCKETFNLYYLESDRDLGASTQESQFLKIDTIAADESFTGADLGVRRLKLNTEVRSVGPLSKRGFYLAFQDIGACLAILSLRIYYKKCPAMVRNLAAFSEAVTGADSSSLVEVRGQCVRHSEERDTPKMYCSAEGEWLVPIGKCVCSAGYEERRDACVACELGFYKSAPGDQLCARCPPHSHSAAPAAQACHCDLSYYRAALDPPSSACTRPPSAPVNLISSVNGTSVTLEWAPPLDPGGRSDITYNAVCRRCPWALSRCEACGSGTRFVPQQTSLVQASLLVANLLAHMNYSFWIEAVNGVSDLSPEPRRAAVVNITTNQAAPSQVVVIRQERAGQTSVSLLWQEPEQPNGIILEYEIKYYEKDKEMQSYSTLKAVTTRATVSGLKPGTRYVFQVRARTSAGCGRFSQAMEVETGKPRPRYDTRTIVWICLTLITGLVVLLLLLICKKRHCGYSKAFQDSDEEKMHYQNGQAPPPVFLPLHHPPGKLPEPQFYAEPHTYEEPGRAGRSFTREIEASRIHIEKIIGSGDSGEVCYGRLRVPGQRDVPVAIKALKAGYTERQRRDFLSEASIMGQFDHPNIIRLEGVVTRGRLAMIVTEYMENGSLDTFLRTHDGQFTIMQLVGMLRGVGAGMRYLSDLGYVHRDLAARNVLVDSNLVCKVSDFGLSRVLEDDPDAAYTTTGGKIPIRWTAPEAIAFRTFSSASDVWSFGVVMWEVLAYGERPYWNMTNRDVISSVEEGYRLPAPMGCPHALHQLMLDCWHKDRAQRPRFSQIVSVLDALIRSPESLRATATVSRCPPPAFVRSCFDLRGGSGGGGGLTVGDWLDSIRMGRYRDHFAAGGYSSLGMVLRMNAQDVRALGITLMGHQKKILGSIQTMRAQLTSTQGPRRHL

Block 1 — technique: Incucyte 3D growth; concentration: 30 µM; direction: higher = more growth; measurement: spheroid area
SMILES: CC(C)(C(=O)O)[C@H](NC(=O)Cc1cccc(I)c1)c1ccc2oc(=O)[nH]c2c1
MEL-JUSO; 216.52 h: 1.54e+07 a.u. and 1.56e+07 a.u. and 1.79e+07 a.u. and 2.16e+07 a.u. and 2.56e+07 a.u.
IPC-298; 156 h: 2.61e+07 a.u. and 2.7e+07 a.u. and 3.02e+07 a.u. and 2.6e+07 a.u. and 3.23e+07 a.u. and 2.28e+07 a.u.
KP-4; 18 h: 1.03e+07 a.u. and 9.67e+06 a.u. and 1.24e+07 a.u. and 8.98e+06 a.u. and 1.09e+07 a.u. and 1.23e+07 a.u.
IPC-298; 198 h: 2.81e+07 a.u. and 3.56e+07 a.u. and 2.76e+07 a.u. and 2.85e+07 a.u. and 2.26e+07 a.u. and 3.09e+07 a.u.
A375; 378.52 h: 1.83e+08 a.u. and 1.9e+08 a.u. and 1.65e+08 a.u. and 1.76e+08 a.u. and 1.69e+08 a.u. and 1.59e+08 a.u.
PC-9; 198 h: 1.67e+09 a.u. and 1.74e+09 a.u. and 1.7e+09 a.u. and 1.76e+09 a.u. and 1.65e+09 a.u. and 1.73e+09 a.u.
MEL-JUSO; 66.52 h: 1.19e+07 a.u. and 1.23e+07 a.u. and 1.31e+07 a.u. and 1.29e+07 a.u. and 1.36e+07 a.u. and 7.76e+06 a.u.
A375; 90.52 h: 5.67e+07 a.u. and 5.78e+07 a.u. and 5.85e+07 a.u. and 5.86e+07 a.u. and 7.12e+07 a.u. and 4.59e+07 a.u.

Block 2 — effect on: enzyme activity; mode: inhibitor; concentration: 0.5 µM; relative to: control; measurement: remaining activity
Target: MAP kinase-interacting serine/threonine-protein kinase 1 (MKNK1, Homo sapiens, UniProt Q9BUB5)
UniProt Q9BUB5, sequence (whole entry, looked up): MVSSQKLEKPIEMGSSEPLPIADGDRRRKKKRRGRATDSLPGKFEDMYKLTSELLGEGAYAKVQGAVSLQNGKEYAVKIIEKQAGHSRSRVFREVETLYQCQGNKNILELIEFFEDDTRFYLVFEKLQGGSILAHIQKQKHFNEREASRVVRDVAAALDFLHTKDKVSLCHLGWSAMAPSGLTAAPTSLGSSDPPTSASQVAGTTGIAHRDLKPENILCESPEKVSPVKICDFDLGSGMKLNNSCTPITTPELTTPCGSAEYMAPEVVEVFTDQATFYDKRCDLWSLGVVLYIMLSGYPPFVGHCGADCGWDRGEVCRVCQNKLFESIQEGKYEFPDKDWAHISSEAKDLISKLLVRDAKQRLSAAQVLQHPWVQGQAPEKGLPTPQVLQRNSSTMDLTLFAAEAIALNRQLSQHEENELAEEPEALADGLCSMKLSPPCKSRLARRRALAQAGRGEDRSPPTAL
Cc1ccc(NC(=O)c2ccc(CN3CCN(C)CC3)cc2)cc1Nc1nc(-c2cccnc2)cs1: 90%
COc1cc2nccc(Oc3ccc(NC(=S)NC(=O)c4ccccc4C)cc3)c2cc1OC: 93.2%
O=C(Nc1cccc(Nc2cc(Nc3cccc(C(F)(F)F)c3)ncn2)c1)C1CC1: 96.7%
NCCNc1ncc(C(N)=O)c(Nc2cccc(C(F)(F)F)c2)n1: 98.2%
Cn1sc(=O)n(Cc2ccccc2)c1=O: 98.6%
OCC(O)CCON=C1C(c2c(O)[nH]c3ccccc23)=Nc2ccccc21 (centres unmarked): 95.3%
Nc1ccc2ncnc(NCCc3ccc(Oc4ccccc4)cc3)c2c1: 106%
N#CC(C#N)=C(N)/C(C#N)=C/c1ccc(O)cc1: 77.2%
COc1ccc(C(=O)Nc2sc3c(c2C(N)=O)CCCC3)cc1OC: 98.2%
O=C1NC(=O)C(c2cn(CCCn3ccnc3)c3ccccc23)=C1Nc1ccccc1: 99.3%
COc1ccc(OC)c2c(=S)c3ccccc3[nH]c12: 115%
O=C(CCCc1ccc(-c2ccccc2F)cc1)Nc1ccc(O)cc1: 111%
CN(C)c1ccc(C=C2C(=O)Nc3ccccc32)cc1: 97.3%
C#Cc1cccc(Nc2ncnc3cc(OCCOC)c(OCCOC)cc23)c1: 58.2%
CCOC(=O)c1c(C)[nH]c(/C=C2\C(=O)Nc3ccccc32)c1C: 112%

Block 3 — Compound: FC(F)(F)c1ccc2c(c1)nc(-c1cccnc1)n2C1CC1; effect on: cell-free assay; technique: competition with immobilised ligand; concentration: 1 µM; measurement: remaining binding
PLK1 (Homo sapiens, UniProt P53350): 96%
Receptor-type tyrosine-protein kinase FLT3, autoinhibited (FLT3, Homo sapiens, UniProt P36888): 100%
FLT3 (Homo sapiens, UniProt P36888, D835H): 69%
TAOK3 (Homo sapiens, UniProt Q9H2K8): 100%
SRC (Homo sapiens, UniProt P12931): 100%
EPHA8 (Homo sapiens, UniProt P29322): 100%
MYLK2 (Homo sapiens, UniProt Q9H1R3): 100%
EGFR (Homo sapiens, UniProt P00533, T790M): 87%

Block 4 — species: human; sample: microsomes or S9; concentration: 2 µM; time: 0.5 h; measurement: remaining compound
COc1ccc(-n2ccnc2-c2nccn2[C@@H]2c3ccccc3C[C@@H]2O)cc1: 39%
CC(=O)/C(=C1\NC(C)(C)Cc2cc(C)c(C)cc21)c1ccccc1: 4.8%
CC(C)[C@H](NC(=O)c1ccc2nc(-c3ccc(NC(=O)NCc4ccccc4)cc3)cn2c1)C(=O)O: 49.1%
CCOc1ccc(S(=O)(=O)N2CCN(C)CC2)cc1-c1nc(O)c2c(n1)c(C(C)(C)C)nn2C: 1.02%
Cc1nc(N(C)CC(O)CN2CCN(C)CC2)nc(C)c1CC(C)C (centres unmarked): 83.8%
CCCN(CCC)CC(c1ccc(-c2cccnc2)cc1)N(C)C(=O)CN1C(=O)COc2cc(Cl)c(Cl)cc21 (centres unmarked): 12.4%
Cc1ccc(NC(=O)Nc2ccc(Cc3ccc(NC(=O)OC(C)(C)C)cc3)cc2)cc1: 62.5%
